Results of several laboratories.
Several values in a cell are separate wells, animals, samples, runs or records. ± marks the error that the study gave.
Chain of UniProt Q56310 (whole entry, looked up): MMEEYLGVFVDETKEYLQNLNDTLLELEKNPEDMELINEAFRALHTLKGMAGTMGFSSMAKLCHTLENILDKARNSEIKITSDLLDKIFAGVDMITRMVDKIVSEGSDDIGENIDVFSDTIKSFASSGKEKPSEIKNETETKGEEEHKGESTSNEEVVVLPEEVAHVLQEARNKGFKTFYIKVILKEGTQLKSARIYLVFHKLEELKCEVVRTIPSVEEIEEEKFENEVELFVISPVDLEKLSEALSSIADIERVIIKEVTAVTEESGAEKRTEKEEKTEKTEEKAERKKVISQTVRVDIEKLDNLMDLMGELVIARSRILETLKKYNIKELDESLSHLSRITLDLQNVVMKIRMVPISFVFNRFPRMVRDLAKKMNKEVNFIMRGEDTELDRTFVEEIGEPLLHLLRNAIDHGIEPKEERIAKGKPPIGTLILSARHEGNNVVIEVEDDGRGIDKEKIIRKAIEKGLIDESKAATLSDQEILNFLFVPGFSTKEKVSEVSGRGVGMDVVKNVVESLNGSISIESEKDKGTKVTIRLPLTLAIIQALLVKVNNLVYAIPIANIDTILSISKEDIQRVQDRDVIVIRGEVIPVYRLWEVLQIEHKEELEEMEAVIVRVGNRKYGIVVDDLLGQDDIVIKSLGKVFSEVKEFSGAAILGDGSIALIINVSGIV
Chain of UniProt Q16678 (whole entry, looked up): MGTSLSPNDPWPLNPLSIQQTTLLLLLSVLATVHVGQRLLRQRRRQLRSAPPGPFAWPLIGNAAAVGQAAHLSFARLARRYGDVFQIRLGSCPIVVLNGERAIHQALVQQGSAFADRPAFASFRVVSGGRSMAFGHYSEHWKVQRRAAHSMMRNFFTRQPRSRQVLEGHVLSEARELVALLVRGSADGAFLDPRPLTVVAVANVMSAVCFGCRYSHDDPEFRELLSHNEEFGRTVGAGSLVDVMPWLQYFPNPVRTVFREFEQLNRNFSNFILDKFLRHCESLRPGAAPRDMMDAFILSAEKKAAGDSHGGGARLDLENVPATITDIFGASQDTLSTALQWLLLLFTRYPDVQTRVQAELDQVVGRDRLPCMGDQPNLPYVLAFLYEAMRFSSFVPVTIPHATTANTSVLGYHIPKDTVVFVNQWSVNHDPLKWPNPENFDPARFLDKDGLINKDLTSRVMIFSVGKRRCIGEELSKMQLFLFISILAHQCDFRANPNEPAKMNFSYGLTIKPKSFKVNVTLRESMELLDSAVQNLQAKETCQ
Chain of UniProt Q84HF5 (whole entry, looked up): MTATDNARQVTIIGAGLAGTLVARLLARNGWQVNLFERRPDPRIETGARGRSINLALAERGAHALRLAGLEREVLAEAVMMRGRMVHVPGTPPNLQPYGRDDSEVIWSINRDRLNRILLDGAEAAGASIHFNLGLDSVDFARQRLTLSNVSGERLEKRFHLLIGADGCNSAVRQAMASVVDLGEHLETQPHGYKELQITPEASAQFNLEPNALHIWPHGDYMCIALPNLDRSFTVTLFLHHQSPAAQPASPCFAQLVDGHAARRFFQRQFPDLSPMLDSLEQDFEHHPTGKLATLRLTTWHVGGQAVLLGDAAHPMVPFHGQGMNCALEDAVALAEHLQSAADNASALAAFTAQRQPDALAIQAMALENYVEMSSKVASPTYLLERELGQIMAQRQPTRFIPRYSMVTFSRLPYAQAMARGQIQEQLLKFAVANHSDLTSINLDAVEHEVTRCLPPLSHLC
Chain of UniProt P63279 (whole entry, looked up): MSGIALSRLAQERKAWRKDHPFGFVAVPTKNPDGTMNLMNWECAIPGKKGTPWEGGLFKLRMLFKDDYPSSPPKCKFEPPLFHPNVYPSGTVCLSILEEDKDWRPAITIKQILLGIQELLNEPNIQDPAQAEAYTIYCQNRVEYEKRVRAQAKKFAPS
Chain of UniProt P09211 (whole entry, looked up): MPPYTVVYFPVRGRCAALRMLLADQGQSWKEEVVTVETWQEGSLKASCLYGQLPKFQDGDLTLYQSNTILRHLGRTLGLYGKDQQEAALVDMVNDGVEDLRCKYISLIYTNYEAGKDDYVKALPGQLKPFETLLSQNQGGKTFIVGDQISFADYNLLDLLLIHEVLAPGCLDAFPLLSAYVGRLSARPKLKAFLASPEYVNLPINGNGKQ
Chain of UniProt Q97W02 (whole entry, looked up): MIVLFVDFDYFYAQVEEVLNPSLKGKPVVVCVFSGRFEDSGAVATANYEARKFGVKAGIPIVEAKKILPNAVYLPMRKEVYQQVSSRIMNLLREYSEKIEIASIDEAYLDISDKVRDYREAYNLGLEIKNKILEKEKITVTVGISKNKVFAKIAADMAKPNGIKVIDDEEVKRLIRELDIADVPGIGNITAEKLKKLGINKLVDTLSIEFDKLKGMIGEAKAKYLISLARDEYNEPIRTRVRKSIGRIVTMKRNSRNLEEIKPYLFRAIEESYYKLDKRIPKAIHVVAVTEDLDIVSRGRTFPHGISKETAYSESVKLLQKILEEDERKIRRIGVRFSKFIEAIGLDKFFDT
Chain of UniProt P23909 (whole entry, unmodified, looked up): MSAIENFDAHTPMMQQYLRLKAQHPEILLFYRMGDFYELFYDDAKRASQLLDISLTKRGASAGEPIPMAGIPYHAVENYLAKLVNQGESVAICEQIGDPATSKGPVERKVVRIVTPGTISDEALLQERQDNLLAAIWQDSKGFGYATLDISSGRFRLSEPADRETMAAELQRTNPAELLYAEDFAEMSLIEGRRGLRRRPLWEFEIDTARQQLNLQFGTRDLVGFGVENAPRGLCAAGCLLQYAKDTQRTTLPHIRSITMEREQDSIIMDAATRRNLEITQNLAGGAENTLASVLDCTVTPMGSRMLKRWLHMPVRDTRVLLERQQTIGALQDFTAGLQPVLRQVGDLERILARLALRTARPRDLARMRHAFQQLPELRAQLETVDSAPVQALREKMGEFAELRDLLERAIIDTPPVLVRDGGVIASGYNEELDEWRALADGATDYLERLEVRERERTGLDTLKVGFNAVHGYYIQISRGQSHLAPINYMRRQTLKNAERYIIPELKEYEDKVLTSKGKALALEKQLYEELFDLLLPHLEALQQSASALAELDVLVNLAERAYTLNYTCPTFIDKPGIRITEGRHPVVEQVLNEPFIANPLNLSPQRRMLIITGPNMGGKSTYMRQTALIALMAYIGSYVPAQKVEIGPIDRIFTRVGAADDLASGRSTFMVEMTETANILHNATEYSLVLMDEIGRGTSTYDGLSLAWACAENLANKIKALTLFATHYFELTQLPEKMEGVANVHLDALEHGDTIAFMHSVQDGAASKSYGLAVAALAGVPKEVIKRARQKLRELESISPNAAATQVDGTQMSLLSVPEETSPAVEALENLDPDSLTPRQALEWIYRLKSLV
Chain of UniProt P0AEE3 (whole entry, looked up): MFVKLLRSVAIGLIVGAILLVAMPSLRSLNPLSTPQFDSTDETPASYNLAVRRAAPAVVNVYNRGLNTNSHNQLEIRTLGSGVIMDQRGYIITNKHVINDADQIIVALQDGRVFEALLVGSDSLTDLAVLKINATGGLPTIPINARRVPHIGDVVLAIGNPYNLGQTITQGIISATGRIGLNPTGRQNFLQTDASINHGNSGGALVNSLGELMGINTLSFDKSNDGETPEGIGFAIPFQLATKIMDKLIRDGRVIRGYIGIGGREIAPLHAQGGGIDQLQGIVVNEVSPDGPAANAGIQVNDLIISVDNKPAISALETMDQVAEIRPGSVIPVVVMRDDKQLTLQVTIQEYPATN
Chain of UniProt P10408 (whole entry, unmodified, looked up): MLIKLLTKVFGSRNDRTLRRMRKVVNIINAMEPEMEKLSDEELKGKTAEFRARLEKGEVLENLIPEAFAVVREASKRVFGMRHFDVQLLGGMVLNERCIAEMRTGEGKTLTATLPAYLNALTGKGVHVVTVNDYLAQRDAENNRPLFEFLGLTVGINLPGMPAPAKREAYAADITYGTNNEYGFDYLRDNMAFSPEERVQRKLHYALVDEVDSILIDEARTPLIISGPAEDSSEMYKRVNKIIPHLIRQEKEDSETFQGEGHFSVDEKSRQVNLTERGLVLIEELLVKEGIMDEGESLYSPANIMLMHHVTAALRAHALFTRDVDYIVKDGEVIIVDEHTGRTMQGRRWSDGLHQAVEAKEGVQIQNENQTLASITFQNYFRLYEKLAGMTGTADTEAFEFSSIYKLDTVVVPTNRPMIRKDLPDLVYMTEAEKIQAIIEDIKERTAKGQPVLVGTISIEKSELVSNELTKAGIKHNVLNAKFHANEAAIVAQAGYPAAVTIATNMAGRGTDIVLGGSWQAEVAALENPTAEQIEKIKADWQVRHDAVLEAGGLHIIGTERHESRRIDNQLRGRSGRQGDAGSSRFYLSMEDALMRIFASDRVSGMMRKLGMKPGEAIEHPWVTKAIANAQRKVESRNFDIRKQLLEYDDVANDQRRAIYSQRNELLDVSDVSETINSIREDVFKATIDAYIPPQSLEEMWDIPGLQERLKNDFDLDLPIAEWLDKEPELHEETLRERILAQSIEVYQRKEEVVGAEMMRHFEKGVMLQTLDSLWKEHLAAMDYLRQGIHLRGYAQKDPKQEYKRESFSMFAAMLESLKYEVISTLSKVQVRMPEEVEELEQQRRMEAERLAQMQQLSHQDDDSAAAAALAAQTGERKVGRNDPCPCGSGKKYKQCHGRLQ

OCc1ccc(-c2nn(Cc3ccccc3)c3ccccc23)o1
Kd (soluble guanylate cyclase beta subunit, N-terminal fragment (Manduca sexta, UniProt O77106); binding): 1.1 ± 0.3 µM

TAMRA-ATP
Kd (mutS (Escherichia coli, UniProt P23909, D693N); fluorescence anisotropy; room temperature, no DNA): 0.505 ± 0.025 µM

[Fe+2]
Kd (methionine aminopeptidase (Acinetobacter baumannii, UniProt A0A7U4DGZ4); metal binding, activator, activity titration; ATCC 17978; divalent metal ion Kd, with: Met-AMC substrate): 0.14 µM

Oc1ccccc1-c1ccccc1O
Kd (SUMO-conjugating enzyme UBC9 (Homo sapiens, UniProt P63279); binding, surface plasmon resonance; saturation not reached): > 2000 µM

NC(=O)c1ccc[n+]([C@@H]2O[C@H](COP(=O)([O-])OP(=O)(O)OC[C@H]3O[C@@H](n4cnc5c(N)ncnc54)[C@H](O)[C@@H]3O)[C@@H](O)[C@H]2O)c1
Kd (Kynurenine 3-monooxygenase (Pseudomonas fluorescens, UniProt Q84HF5); fluorescence polarization displacement; pH 7.0, with: 30 nM fluorescent probe): 670 ± 70 µM

CC[C@H](C)[C@H](NC(=O)[C@@H](NC(=O)[C@H](CO)NC(=O)[C@H](CCC(N)=O)NC(=O)[C@H](CCCCN)NC(=O)[C@@H](N)CCSC)[C@@H](C)O)C(=O)N[C@@H](C)C(=O)N[C@@H](CC(C)C)C(=O)N[C@@H](C)C(=O)N[C@@H](CC(C)C)C(=O)N[C@@H](CC(C)C)C(=O)N1CCC[C@H]1C(=O)N[C@@H](CC(C)C)C(=O)N[C@@H](CC(C)C)C(=O)N[C@@H](Cc1ccccc1)C(=O)N[C@H](C(=O)N1CCC[C@H]1C(=O)N[C@H](C(=O)N[C@H](C(=O)N[C@@H](CCCCN)C(=O)N[C@@H](C)C(=O)N[C@@H](CS)C(N)=O)[C@@H](C)O)C(C)C)[C@@H](C)O
Kd (Protein translocase subunit SecA (secA, Escherichia coli, UniProt P10408, C885S/C887S/C896S/C98S/S696C); fluorescence anisotropy; pH 7.5, mutant, with: IAN-labelled signal peptide 1 µM): 2.5 ± 0.2 µM

Nc1ncnc2c1ncn2[C@@H]1O[C@H](COP(=O)(O)OP(=O)(O)OP(=O)(O)O)[C@@H](O)[C@H]1O
Kd (Chemotaxis protein CheA (cheA, Thermotoga maritima, UniProt Q56310); competitor, TNP-nucleotide competition binding; 4 °C, second binding site, with: TNP-compound, 0.6 µM CheA dimer, Mg2+): ~5000 µM and 5000 µM

CC(=O)N[C@@H](CC(C)C)C(=O)N[C@@H](CCCCN)C(=O)N[C@@H](CCCCN)C(=O)N[C@@H](CC(C)C)C(=O)N[C@@H](CC(C)C)C(=O)N[C@@H](CCCCN)C(=O)N[C@@H](CC(C)C)C(=O)N[C@@H](CC(C)C)C(=O)N[C@@H](CCCCN)C(=O)N[C@@H](CCCCN)C(=O)N[C@@H](CC(C)C)C(=O)N[C@@H](Cc1c[nH]c2ccccc12)C(=O)N[C@@H](CCCCN)C(=O)N[C@@H](CC(C)C)C(=O)N[C@@H](C)C(=O)NCC(N)=O
Kd (HCV IRES domain IV hairpin; competitive fluorescence anisotropy; pH 7.4, 20 °C, with: rhodamine-Rev peptide): 0.0023 ± 2e-05 µM

Nc1ccn([C@H]2C[C@H](O)[C@@H](COP(=O)(O)OP(=O)(O)OP(=O)(O)O)O2)c(=O)n1
Kd (DNA polymerase IV, with DNA (dbh, Saccharolobus solfataricus, UniProt Q97W02); dNTP incorporation, substrate, single-turnover kinetics; 37 °C, insertion opposite lesion, with: DNA with dG-C8-N-ABA lesion, Dpo4 120 nM): 510 ± 60 µM

C#Cc1cc2cccc3ccc4cccc1c4c32
Kd (Cytochrome P450 1B1 (CYP1B1, Homo sapiens, UniProt Q16678); binding, fluorescence; pH 7.4): < 2.5 µM and 0.9 µM

CC[C@H](C)[C@@H]1NC(=O)CNC(=O)[C@H](C)NC(=O)[C@@H]2CCCN2C(=O)[C@H]([C@@H](C)CC)NC(=O)[C@H](CCCNC(=N)N)NC(=O)[C@@H](N)CSSC[C@@H](C(=O)NCC(=O)NCC(=O)NCC(=O)NCC(=O)N[C@@H](CO)C(=O)N2CCC[C@H]2C(=O)N[C@@H](C)C(=O)N2CCC[C@H]2C(=O)N[C@@H](C)C(=O)N[C@@H](CCCCN)C(=O)O)NC(=O)[C@H](Cc2ccc(O)cc2)NC(=O)[C@H](CCCNC(=N)N)NC(=O)[C@H](CCCNC(=N)N)NC(=O)[C@H](CCC(=O)O)NC(=O)CNC(=O)[C@H](C)NC1=O
Kd (sapA (Haemophilus influenzae, UniProt Q4QL73); binding, SPR; 25 °C, with: immobilised oxidised defensin loop peptide): 0.0171 µM

CC(C)[C@H](NC(=O)[C@H](CC(N)=O)NC(=O)CNC(=O)[C@H](CC(=O)O)NC(=O)[C@H](CCCNC(=N)N)NC(=O)[C@H](CC(N)=O)NC(=O)[C@@H](N)CC(=O)O)C(=O)N[C@@H](Cc1ccc(O)cc1)C(=O)N[C@@H](Cc1ccc(O)cc1)C(=O)N[C@@H](Cc1ccccc1)C(=O)O
Kd (Serine endoprotease DegS (degS, Escherichia coli, UniProt P0AEE3)): 0.2 µM

CC1=C(/C=C/C(C)=C/C=C/C(C)=C/C=C/C=C(C)/C=C/C=C(C)/C=C/C2=C(C)C[C@@H](O)CC2(C)C)C(C)(C)C[C@H](O)C1
Kd (Glutathione S-transferase P (GSTP1, Homo sapiens, UniProt P09211); binding, SPR): 0.15 µM

Repeated from above:
Oc1ccccc1-c1ccccc1O
Kd (SUMO-conjugating enzyme UBC9 (Homo sapiens, UniProt P63279); binding, surface plasmon resonance; saturation not reached): > 2000 µM

CC[C@H](C)[C@@H]1NC(=O)CNC(=O)[C@H](C)NC(=O)[C@@H]2CCCN2C(=O)[C@H]([C@@H](C)CC)NC(=O)[C@H](CCCNC(=N)N)NC(=O)[C@@H](N)CSSC[C@@H](C(=O)NCC(=O)NCC(=O)NCC(=O)NCC(=O)N[C@@H](CO)C(=O)N2CCC[C@H]2C(=O)N[C@@H](C)C(=O)N2CCC[C@H]2C(=O)N[C@@H](C)C(=O)N[C@@H](CCCCN)C(=O)O)NC(=O)[C@H](Cc2ccc(O)cc2)NC(=O)[C@H](CCCNC(=N)N)NC(=O)[C@H](CCCNC(=N)N)NC(=O)[C@H](CCC(=O)O)NC(=O)CNC(=O)[C@H](C)NC1=O
Kd (sapA (Haemophilus influenzae, UniProt Q4QL73); binding, SPR; 25 °C, with: immobilised oxidised defensin loop peptide): 0.0171 µM
